Published values gathered from unrelated publications.
Compare with care: the assays were run in different laboratories. ± marks the error that the study gave. Values after ≈ are worked out from the molar mass of the structure shown.

O=C([O-])CN1CCN(CC(=O)[O-])CCN(CC(=O)NC[C@H]2CC[C@H](C(=O)N[C@H](Cc3cnc4ccccc4c3)C(=O)NCCCC[C@H](NC(=O)N[C@@H](CCC(=O)O)C(=O)O)C(=O)O)CC2)CCN(CC(=O)[O-])CC1.[64Cu+2]  absorbed dose (PET/CT dosimetry; healthy human volunteers, urinary bladder wall): 0.148 mGy/MBq
CC(C)(Sc1ccncc1-c1ccc(C#N)c2ccccc12)C(=O)OC1OC(C(=O)O)C(O)C(O)C1O (stereo not shown)  fraction excreted unchanged (urine; oral, 15 mg, 72 h, moderate renal impairment; reference: dose): 13.1%
CCCC[C@@H]1NC(=O)[C@@H](NC(=O)[C@H](CCC(=O)O)NC(=O)CNC(=O)CN2CCN(CC(=O)O)CCN(CC(=O)O)CCN(CC(=O)O)CC2)CCCCNC(=O)C[C@@H](C(N)=O)NC(=O)[C@H](C(C)C)NC(=O)[C@@H]2CCCN2C(=O)[C@H](CCCNC(=N)N)NC(=O)CNC(=O)[C@H](Cc2c[nH]c3ccccc23)NC(=O)[C@H](CCCNC(=N)N)NC(=O)[C@@H](Cc2ccccc2)NC(=O)[C@H](Cc2c[nH]cn2)NC(=O)[C@H](CCC(=O)O)NC1=O [gallium-67 labelled]  tissue uptake (C57 mice, B16/F10 lung metastatic melanoma, heart; intravenous, 0.037 MBq, 2 h): 0.02 ± 0.02 %ID/g
NCC(=O)NCC(=O)NCC(=O)NCC(=O)NCC(=O)NCC(=O)NCCCC[C@H](NC(=O)[C@@H]1CCCN1C(=O)[C@@H]1CSSCCC(=O)N[C@@H](Cc2ccc(O)cc2)C(=O)N[C@@H](Cc2ccccc2)C(=O)N[C@@H](CCCC(N)=O)C(=O)N[C@@H](CC(N)=O)C(=O)N1)C(=O)NCC(N)=O  NOAEL (male Sprague Dawley rats; sc, single dose): 0.23 mg/kg
C=C(c1ccc(C(=O)O)c(F)c1)c1cc2c(cc1C)C(C)(C)C=CC2(C)C  triglycerides (rat, Sprague-Dawley, male, serum; oral, 100 mg/kg, 24 h): 1590 ± 821 ng/dL
CC/C=C\C/C=C\C/C=C\C/C=C\C/C=C\CCCCOC(CC)C(=O)O (stereo not shown)  tissue concentration (14C radiolabel; Wistar rats male, muscle; oral, 100 mg/kg, 2 h): 5.2 µg/g
CC[C@H](C)[C@@H]1NC(=O)[C@H]([C@@H](C)O)NC(=O)[C@H](Cc2ccc(O)cc2)NC(=O)[C@H](CCCNC(=N)N)NC(=O)[C@@H]2CCCN2C(=O)[C@H]2CCCN2C(=O)[C@H]([C@@H](C)O)NC(=O)[C@H](C(C)C)NC(=O)[C@H](C(C)C)NC(=O)[C@H](CCCCN)NC(=O)[C@H](CO)NC(=O)[C@@H](CCC(N)=O)NC(=O)[C@H](CO)NC(=O)[C@H](Cc2ccc(O)cc2)NC(=O)[C@H](CO)NC(=O)[C@H](Cc2ccc(O)cc2)NC(=O)[C@@H]2CCCN2C(=O)[C@H](CO)NC(=O)[C@H](CC(C)C)NC(=O)[C@H](CC(C)C)NC(=O)[C@H](C)NC(=O)[C@H](C)NC1=O  apparent molecular weight (self-assembled oligomers, PICUP cross-linking and SDS-PAGE; PBS; 36 µM, 1 h, 37 °C): ≥ 25 kDa
COc1cc2nc(N3CCCCC3)nc(NC3CCN(C)CC3)c2cc1OC  kinetic solubility (nephelometry; pH 2): 50 to 100 µg/mL (≈ 130 to 259 µM)
CC[C@H](C)[C@@H]1NC(=O)[C@H](CCCCN)NC(=O)[C@H](CCCCN)NC(=O)[C@H](Cc2ccc(O)cc2)NC(=O)[C@H](CC(C)C)NC(=O)[C@@H]2CCCN2C(=O)CNC(=O)CNC(=O)[C@@H](NC(=O)CN)CSSC[C@@H](C(=O)N[C@@H](CCC(=O)O)C(=O)N[C@@H](CO)C(N)=O)NC(=O)[C@H](CC(C)C)NC(=O)[C@H](CCCCN)NC(=O)[C@H](CCCCN)NC(=O)[C@H]([C@@H](C)CC)NC(=O)[C@H]([C@@H](C)CC)NC(=O)[C@H](CCCCN)NC(=O)[C@H](CCCCN)NC(=O)[C@H](Cc2ccc(O)cc2)NC(=O)[C@H](CC(C)C)NC(=O)[C@@H]2CCCN2C(=O)[C@H](C)NC(=O)CNC(=O)CNC(=O)[C@H](CO)NC(=O)CNC(=O)CNC(=O)[C@H](CO)NC(=O)[C@H](CCC(=O)O)NC(=O)[C@H](CC(C)C)NC(=O)[C@H](CC(C)C)NC(=O)[C@H](CCCCN)NC(=O)[C@H](CCCCN)NC(=O)[C@H]([C@@H](C)CC)NC1=O  HC10 (hemolysis; uninfected human erythrocytes; 1 h): > 128 µM
COc1cc2c(cc1OC)CN(CCCCn1ccc3cc(OCC[18F])ccc31)C2  tracer uptake (male CD-1 mouse, muscle; intravenous, 280 kBq, 15 min): 2.72 %ID/g
CC(C)(O)c1ncc([S@](N)(=O)=NC(=O)Nc2c3c(cc4c2CCC4)CCC3)s1  lag time (healthy human volunteers, plasma; oral, 50 mg twice daily, fed, enteric-coated tablet): 0.25 h
Oc1ccc2ccccc2c1/N=N/c1ccccc1  elimination half-life (Sprague-Dawley rats both sexes, whole blood; oral, 50 mg/kg): 50.2 min
CCCC[C@H](NC(=O)CN1CCC(NC(=O)CN2CCN(CC(=O)O)CCN(CC(=O)O)CCN(CC(=O)O)CC2)CC1)C(=O)N[C@H]1CC(=O)NCCCC[C@@H](C(N)=O)NC(=O)[C@H](Cc2c[nH]c3ccccc23)NC(=O)[C@H](CCCNC(=N)N)NC(=O)[C@@H](Cc2ccccc2)NC(=O)[C@H](Cc2c[nH]cn2)NC1=O [gallium-68 labelled]  intact compound (radio-HPLC; mouse, plasma; intravenous, 8 to 12 MBq, 15 min post injection): > 93%
NC12CNCCNCC(NCc3ccc(CNC(=O)CCCC(=O)NCc4ccc(-c5nncnn5)cc4)cc3)(CNCCNC1)CNCCNC2.[64Cu+2]  mean absorbed dose (OLINDA dosimetry; lower large intestine wall; pretargeting, 24-h interval): 0.0484 rad/mCi
[Cl-].[Cl-].[Ru+2].c1ccc2nc3c4cccnc4c4ncccc4c3nc2c1.c1ccncc1.c1ccncc1.c1ccncc1.c1ccncc1  hemolysis (red blood cells, rabbit; 20 µM, 2 h, 37 °C): 0.64 ± 0.01%
COC[C@@H](CC(C)C)NC(=O)c1ccc(CO)c(C)c1  metabolite peak area (LC-MS; human liver microsomes; 10 µM of parent drug, 60 min, pH 7.4, together with: NADPH; reference: parent drug at time zero): ~21.2%
CCC(CC)CNC(=N)NC(=N)NCCCCCCNC(=N)NC(=N)NCC(CC)CC  urinary excretion (BALB/c mice, male, urine; intraperitoneal, 2 mg/kg daily for 5 days, 0 to 4 h after last dose; reference: final dose): 0.017%
CN(C)c1ccc(-c2nc3ccc(OCCCCCN4CCN5CCN(CC4)CC(=O)[O][Al]([18F])[O]C(=O)C5)cc3s2)cc1  intestine uptake (ICR mouse; intravenous, dose not given, 30 min): 14.2 ± 4.03 % injected dose/organ
NS(=O)(=O)c1ccc(N2N=C(C(F)(F)F)CC2c2ccc(F)cc2F)cc1 (stereo not shown)  ka (population PK model; Beagle dog): 0.22 h⁻¹
O=C(NCCCN(CCCCN(CCCNC(=O)c1cccc(=O)n1[O-])C(=O)c1cccc(=O)n1[O-])C(=O)c1cccc(=O)n1[O-])c1cccc(=O)n1[O-].[89Zr+4]  intact complex (radio-TLC; PBS; 1 d, pH 7.4, 37 °C, together with: Mg^2+ 10-fold excess): 98.3 ± 2.5%
CCCC[C@H](NC(=O)CNC(=O)CNC(=O)CN1CCN(CC(=O)O)CCN(CC(=O)O)CCN(CC(=O)O)CC1)C(=O)N[C@H]1CC(=O)NCCCC[C@@H](C(N)=O)NC(=O)[C@H](Cc2c[nH]c3ccccc23)NC(=O)[C@H](CCCNC(=N)N)NC(=O)[C@@H](Cc2ccccc2)NC(=O)[C@H](Cc2c[nH]cn2)NC1=O [lead-203 labelled]  urinary excretion (normal C57 mice, urine; intravenous, 0.056 MBq, 4 h): 92 ± 2.16%
Cn1c(=O)oc2ccc(-c3ccc(CC(C#N)NC(=O)C4CNCCCO4)c(F)c3)cc21 (stereo not shown)  subjects with TEAE (refers to: blood triglycerides increased; human; 80 mg single dose, fasted): 0%
CCC1CC2C(C)=CC3C(=O)CCCC3C=CC(C)=CC2C(=O)O1 (stereo not shown)  plasma concentration (ICR mouse (male), plasma; oral, 30 mg/kg, 60 min): 0.8 ± 0.8 ng/mL
CC(C)CCCC(C)CCCC(C)CCO[C@@H]1O[C@H](CO)[C@@H](O[C@H]2O[C@H](CO)[C@@H](O)[C@H](O)[C@H]2O)[C@H](O)[C@H]1O (stereo partly shown)  diffusion coefficient (dynamic surface tension; water; 0.0145 mmol/L): ~1.9e-10 m²/s
CCCCCCCCCCCCCCCC(=O)OCC(COC(=O)CCCCCCCCCCCCCCC)OC(=O)CCCSSCCCC(=O)OC(C(=O)OC1CC2(O)C(OC(=O)c3ccccc3)C3C4(OC(C)=O)COC4CC(OC)C3(C)C(=O)C(OC)C(=C1C)C2(C)C)C(NC(=O)OC(C)(C)C)c1ccccc1 (stereo not shown)  cabazitaxel release (prodrug; PBS with 30% ethanol; 48 h, pH 7.4, 37 °C, together with: DTT 10 mM): 55%
COc1cc(C)c(Cc2ccc(O)cc2)cc1[C@@H]1S[C@H](CO)[C@@H](O)[C@H](O)[C@H]1O  AUC(0-τ) (Japanese T2DM patients, plasma; 1 mg luseogliflozin, day 7, once daily): 50.4 ± 7.62 ng·h/mL
COCCOCCOCCOCCC(=O)NCc1cc(CNC(=O)CCOCCOCCOCCOC)cc(-c2cc3cc4nc(c(-c5ccc(CCC(=O)O)cc5)c5[nH]c(cc6nc(c(OC)c2[nH]3)CC6(C)C)cc5-c2cc(CNC(=O)CCOCCOCCOCCOC)cc(CNC(=O)CCOCCOCCOCCOC)c2)CC4(C)C)c1  intersystem crossing yield (water with 5% DMF; room temperature): 0.35
CC(C)[C@H](NC(=O)CNC(=O)[C@H](CCC(N)=O)NC(=O)[C@H](C)N)C(=O)O  Cmax (human, both sexes, plasma; intravenous infusion, 15 mg/kg/h, 2 h infusion, geometric mean): 441 ng/mL
CCc1nc(-c2ccc3c(c2)C(O)C[C@H]3NC(=O)c2cnn(C)c2)no1 (stereo partly shown)  radioactive dose excreted in urine (human, pooled urine; oral, 20 mg; reference: dose): 3.38%
CC[C@H](C)[C@H](NC(=O)[C@H](N)Cc1ccc(O)cc1)C(=O)N[C@H]1CSSC[C@@H](C(=O)N(C)[C@H](C(N)=O)[C@@H](C)CC)NC(=O)[C@H](CCCNC(=N)N)NC(=O)[C@H](Cc2c[nH]cn2)NC(=O)[C@H](C)NC(=O)CN(C)C(=O)[C@H](Cc2c[nH]c3ccccc23)NC(=O)[C@H](CC(=O)O)NC(=O)[C@H](CCC(N)=O)NC(=O)[C@H](Cc2cn(C)c3ccccc23)NC(=O)[C@H](C(C)C)NC1=O  recovery (UPLC-ESI-MS; human plasma; 0.36 µg/mL, 48 h, 25 °C, bench-top after SPE): 100.1 ± 0.1%
CC(NC(=O)OC1OC(C(=O)O)C(O)C(O)C1O)c1cc(Cl)ccc1Cn1c(=S)[nH]c(=O)c2[nH]ccc21 (stereo not shown)  recovery (equilibrium dialysis; human plasma; 16 h, pH 7.4): > 84%
CC(=O)c1ccc2c(c1)sc(=O)n2CCCNC(=O)CN(CCN(CCN(CC(=O)O)CC(=O)NCCCn1c(=O)sc2cc(C(C)=O)ccc21)CC(=O)O)CC(=O)O  hemolysis (human erythrocytes; concentration not given, 4 h): 2.33%
O=C(Nc1nccs1)C(c1cc(F)ccc1O)N1Cc2ccccc2C1=O (stereo not shown)  AUC(0-4h) (mouse FVB/NRj, female, plasma; oral, 20 mg/kg): 534 ± 273 ng·h/mL
COC(=O)c1ccc2c(c1)NC(=O)/C2=C(\Nc1ccc2c(c1)CCN2C(=O)CN1CCOCC1)c1ccccc1  bioavailability (beagle dog, plasma; oral, 50 mg/kg): 21%

Repeated from above:
CC[C@H](C)[C@@H]1NC(=O)[C@H](CCCCN)NC(=O)[C@H](CCCCN)NC(=O)[C@H](Cc2ccc(O)cc2)NC(=O)[C@H](CC(C)C)NC(=O)[C@@H]2CCCN2C(=O)CNC(=O)CNC(=O)[C@@H](NC(=O)CN)CSSC[C@@H](C(=O)N[C@@H](CCC(=O)O)C(=O)N[C@@H](CO)C(N)=O)NC(=O)[C@H](CC(C)C)NC(=O)[C@H](CCCCN)NC(=O)[C@H](CCCCN)NC(=O)[C@H]([C@@H](C)CC)NC(=O)[C@H]([C@@H](C)CC)NC(=O)[C@H](CCCCN)NC(=O)[C@H](CCCCN)NC(=O)[C@H](Cc2ccc(O)cc2)NC(=O)[C@H](CC(C)C)NC(=O)[C@@H]2CCCN2C(=O)[C@H](C)NC(=O)CNC(=O)CNC(=O)[C@H](CO)NC(=O)CNC(=O)CNC(=O)[C@H](CO)NC(=O)[C@H](CCC(=O)O)NC(=O)[C@H](CC(C)C)NC(=O)[C@H](CC(C)C)NC(=O)[C@H](CCCCN)NC(=O)[C@H](CCCCN)NC(=O)[C@H]([C@@H](C)CC)NC1=O  HC10 (hemolysis; uninfected human erythrocytes; 1 h): > 128 µM
COc1cc2c(cc1OC)CN(CCCCn1ccc3cc(OCC[18F])ccc31)C2  tracer uptake (male CD-1 mouse, muscle; intravenous, 280 kBq, 15 min): 2.72 %ID/g
CC/C=C\C/C=C\C/C=C\C/C=C\C/C=C\CCCCOC(CC)C(=O)O (stereo not shown)  tissue concentration (14C radiolabel; Wistar rats male, muscle; oral, 100 mg/kg, 2 h): 5.2 µg/g
